# Measurements from different studies.
# Protocols differ between the studies behind these lines. Values joined by “and” are separate records of one study, mostly repeats; a detail may differ. Numbers after ± are the reported error.
Compound,target or system,assay,system,setting,scale,measurement,result
CC(C)[C@H](NC(=O)[C@@H](NC(=O)[C@H](CCCNC(=N)N)NC(=O)[C@H](CCCNC(=N)N)NC(=O)[C@H](CCCNC(=N)N)NC(=O)[C@H](CCC(N)=O)NC(=O)[C@H](CCCNC(=N)N)NC(=O)[C@H](CCCNC(=N)N)NC(=O)[C@H](CCCCN)NC(=O)[C@H](CCCCN)NC(=O)[C@H](CCCNC(=N)N)NC(=O)CN)[C@@H](C)O)C(=O)N[C@H](C(=O)N[C@@H](CO)C(=O)N1CCC[C@H]1C(=O)O)[C@@H](C)O,,,"ICR mouse, female, left kidney","intranasal, 5 mg/kg daily, 4 weeks",,kidney weight,0.218 ± 0.02 g
Cc1cc(-c2cc([C@@H](C)NC(=O)c3cc(OCCN(C)C)ccc3C)c3ccccc3n2)n(C)n1,Vero E6,,,15.62 µM,,viability,99.2% and 102%
CCN(CCCCOc1ccc(CCC(=O)N2CCC(Cc3ccccc3)CC2)cc1OC)Cc1ccccc1,,,"Sprague-Dawley rats, both sexes, faeces","oral gavage, 25 mg/kg, 0 to 6 h",reference: dose,excretion rate,0.0011 ± 0.0006%
CC(C)=CCC/C(C)=C/CCn1cc(CC(P(=O)(O)O)P(=O)(O)O)nn1,,PAMPA,phosphate buffer,"5 µg/mL, 5 h, room temperature",,Papp,0.063 ± 0.007 ×10⁻⁶ cm/s
O=C1NC2(CC2)COc2ncc(F)cc2[C@H]2COCCN2c2ccn3ncc1c3n2,,,"Sprague-Dawley rat, male, blood","oral, 2.5 mg/kg/day, 4 weeks, end of recovery, subacute toxicity",,mean corpuscular haemoglobin concentration,320 ± 6 g/L
CCN(CC)CCOc1ccc(-c2nnn(Cc3ccc(OC)cc3)c2N)cc1,,,dog hepatocytes,"concentration not given, time not given",,remaining compound,54%
N#[11C]c1ccc(-c2csc(NN=C3CCCC3)n2)cc1,,,"C57BL/6 mouse, male","intravenous, 3 MBq, 5 min",,uptake in blood,6.41 ± 0.33 %ID/g
CC[C@H](C)[C@H](NC(=O)[C@H](CCCCN)NC(=O)CNC(=O)[C@H](CC(C)C)NC(=O)[C@H](Cc1ccccc1)NC(=O)[C@H](CCCCN)NC(=O)[C@H](CO)NC(=O)[C@H](Cc1ccccc1)NC(=O)[C@H](Cc1c[nH]c2ccccc12)NC(=O)[C@H](CCC(N)=O)NC(=O)[C@@H](NC(=O)[C@H](Cc1ccccc1)NC(=O)CCCCCNC(=O)CN1CCN(CC(=O)O)CCN(CC(=O)O)CCN(CC(=O)O)CC1)C(C)C)C(=O)N[C@@H](CCC(=O)O)C(=O)N1CCC[C@H]1C(=O)N[C@@H](CC(=O)O)C(=O)N[C@H](C(=O)N[C@@H](CO)C(=O)N[C@@H](CCC(N)=O)C(=O)N[C@H](C(=O)N[C@@H](CCC(N)=O)C(=O)N[C@@H](CC(=O)O)C(=O)N1CCC[C@H]1C(=O)N[C@@H](CC(N)=O)C(=O)N[C@@H](CC(=O)O)C(=O)N[C@@H](CCC(N)=O)C(=O)N[C@@H](Cc1ccc(O)cc1)C(=O)N[C@@H](CCC(=O)O)C(=O)N1CCC[C@H]1C(=O)N[C@@H](Cc1ccccc1)C(=O)O)C(C)C)C(C)C [copper-64 labelled],,,"C57BL/6 mice, kidneys","vehicle, intratracheal instillation",,tissue uptake,20.6 ± 2.9 %ID/g
CC[C@H](C)[C@H](NC(=O)[C@H](CC(C)C)NC(=O)CNC(=O)[C@H](Cc1c[nH]cn1)NC(=O)[C@@H](NC(=O)[C@H](Cc1c[nH]c2ccccc12)NC(=O)[C@H](CCCCN)NC(=O)CNC(=O)[C@@H](NC(=O)[C@H](Cc1c[nH]cn1)NC(=O)[C@H](Cc1c[nH]cn1)NC(=O)[C@@H](NC(=O)CNC(=O)[C@H](Cc1c[nH]cn1)NC(=O)[C@H](Cc1ccccc1)NC(=O)[C@H](CC(C)C)NC(=O)[C@H](CC(C)C)NC(=O)CNC(=O)[C@H](CC(C)C)NC(=O)[C@@H](N)Cc1ccccc1)C(C)C)C(C)C)[C@@H](C)CC)C(=O)N[C@@H](Cc1c[nH]cn1)C(=O)NCC(=O)N[C@@H](Cc1c[nH]cn1)C(=O)N[C@@H](Cc1c[nH]cn1)C(N)=O,,,"zebrafish embryos 28 hpf, E3 medium",1 h,,acute toxic concentration,5 µM
Cc1ccc(OCCN(C)C)cc1C(=O)N[C@H](C)c1cc(-c2ccc(CNC3CCCC3)s2)nc2ccccc12,Vero E6,,,7.812 µM,,viability,103% and 100%
CSCC[C@H](N)C(=O)N[C@@H](C)C(=O)N[C@@H](CCCNC(=N)N)C(=O)N[C@@H](CCCNC(=N)N)C(=O)N[C@@H](CC(=O)O)C(=O)N[C@@H](CCCCN)C(=O)N[C@H](C(=O)N[C@@H](CC(=O)O)C(=O)N[C@@H](Cc1ccccc1)C(=O)N[C@@H](C)C(=O)N[C@@H](CCCNC(=N)N)C(=O)N[C@@H](CCCNC(=N)N)C(=O)N[C@@H](CCCNC(=N)N)C(=O)N[C@@H](CCCNC(=N)N)C(=O)NCCCCCC(=O)NCCCCC(NC(=O)CCCCCNC(=O)[C@H](CCCNC(=N)N)NC(=O)[C@H](CCCNC(=N)N)NC(=O)[C@H](CCCNC(=N)N)NC(=O)[C@H](CCCNC(=N)N)NC(=O)[C@H](C)NC(=O)[C@H](Cc1ccccc1)NC(=O)[C@H](CC(=O)O)NC(=O)[C@@H](NC(=O)[C@H](CCCCN)NC(=O)[C@H](CC(=O)O)NC(=O)[C@H](CCCNC(=N)N)NC(=O)[C@H](CCCNC(=N)N)NC(=O)[C@H](C)NC(=O)[C@@H](N)CCSC)[C@@H](C)O)C(=O)NCCCCC(NC(=O)C(CCCCNC(=O)CCCCCNC(=O)[C@H](CCCNC(=N)N)NC(=O)[C@H](CCCNC(=N)N)NC(=O)[C@H](CCCNC(=N)N)NC(=O)[C@H](CCCNC(=N)N)NC(=O)[C@H](C)NC(=O)[C@H](Cc1ccccc1)NC(=O)[C@H](CC(=O)O)NC(=O)[C@@H](NC(=O)[C@H](CCCCN)NC(=O)[C@H](CC(=O)O)NC(=O)[C@H](CCCNC(=N)N)NC(=O)[C@H](CCCNC(=N)N)NC(=O)[C@H](C)NC(=O)[C@@H](N)CCSC)[C@@H](C)O)NC(=O)CCCCCNC(=O)[C@H](CCCNC(=N)N)NC(=O)[C@H](CCCNC(=N)N)NC(=O)[C@H](CCCNC(=N)N)NC(=O)[C@H](CCCNC(=N)N)NC(=O)[C@H](C)NC(=O)[C@H](Cc1ccccc1)NC(=O)[C@H](CC(=O)O)NC(=O)[C@@H](NC(=O)[C@H](CCCCN)NC(=O)[C@H](CC(=O)O)NC(=O)[C@H](CCCNC(=N)N)NC(=O)[C@H](CCCNC(=N)N)NC(=O)[C@H](C)NC(=O)[C@@H](N)CCSC)[C@@H](C)O)C(N)=O)[C@@H](C)O (stereo partly shown),,,"C57BL/6 mouse female, spine","dose not given, 6 h",reference: total,tissue distribution,4.05%
CCCC[C@H]1C(=O)N(C)[C@@H](CCCC)C(=O)N[C@@H](CCCNC(=O)CN2CCN(CC(=O)O)CCN(CC(=O)O)CCN(CC(=O)O)CC2)C(=O)N[C@H](C(=O)NCC(N)=O)CSCC(=O)N[C@@H](Cc2ccc(O)cc2)C(=O)N(C)[C@@H](C)C(=O)N[C@@H](CC(N)=O)C(=O)N2CCC[C@H]2C(=O)N[C@@H](Cc2c[nH]cn2)C(=O)N[C@@H](CC(C)C)C(=O)N(C)CC(=O)N[C@@H](Cc2c[nH]c3ccccc23)C(=O)N[C@@H](CO)C(=O)N[C@@H](Cc2c[nH]c3ccccc23)C(=O)N1C [gallium-68 labelled],,,"NOD/SCID mice, CHO-hPD-L1 xenograft, tumour over blood","iv, dose not given, 30 min",reference: tumour over blood,tissue-to-tissue ratio,0.77 ± 0.03
COCC1CN(C2CCN(c3cc(OC)c(Nc4ncc(Br)c(Nc5ccc6c(c5P(C)(C)=O)OCCO6)n4)cc3C)CC2)C1,,,EGFR-mutant NSCLC patients,"oral, 10 mg once daily",,treatment-related AEs leading to death,0%

# Some of these lines once more:
Compound,target or system,assay,system,setting,scale,measurement,result
CC(C)[C@H](NC(=O)[C@@H](NC(=O)[C@H](CCCNC(=N)N)NC(=O)[C@H](CCCNC(=N)N)NC(=O)[C@H](CCCNC(=N)N)NC(=O)[C@H](CCC(N)=O)NC(=O)[C@H](CCCNC(=N)N)NC(=O)[C@H](CCCNC(=N)N)NC(=O)[C@H](CCCCN)NC(=O)[C@H](CCCCN)NC(=O)[C@H](CCCNC(=N)N)NC(=O)CN)[C@@H](C)O)C(=O)N[C@H](C(=O)N[C@@H](CO)C(=O)N1CCC[C@H]1C(=O)O)[C@@H](C)O,,,"ICR mouse, female, left kidney","intranasal, 5 mg/kg daily, 4 weeks",,kidney weight,0.218 ± 0.02 g
CC[C@H](C)[C@H](NC(=O)[C@H](CC(C)C)NC(=O)CNC(=O)[C@H](Cc1c[nH]cn1)NC(=O)[C@@H](NC(=O)[C@H](Cc1c[nH]c2ccccc12)NC(=O)[C@H](CCCCN)NC(=O)CNC(=O)[C@@H](NC(=O)[C@H](Cc1c[nH]cn1)NC(=O)[C@H](Cc1c[nH]cn1)NC(=O)[C@@H](NC(=O)CNC(=O)[C@H](Cc1c[nH]cn1)NC(=O)[C@H](Cc1ccccc1)NC(=O)[C@H](CC(C)C)NC(=O)[C@H](CC(C)C)NC(=O)CNC(=O)[C@H](CC(C)C)NC(=O)[C@@H](N)Cc1ccccc1)C(C)C)C(C)C)[C@@H](C)CC)C(=O)N[C@@H](Cc1c[nH]cn1)C(=O)NCC(=O)N[C@@H](Cc1c[nH]cn1)C(=O)N[C@@H](Cc1c[nH]cn1)C(N)=O,,,"zebrafish embryos 28 hpf, E3 medium",1 h,,acute toxic concentration,5 µM
